Results pooled from the literature.
Every numbered part comes from another study and shows a few of its results, in no order. Substitutions count along the parent as printed.

Sample 1
Target: Interferon regulatory factor 5, full length, phosphomimetic (IRF5, Homo sapiens, UniProt Q13568-2, residues 1-514, K96S/S451D/S453D/S456D/S462D)
Technique: protein-binding microarray
Molecule type: double-stranded DNA, one strand shown
Sample: in vitro
Tested at: 250 nM
Setting: 60-bp whole probe
With: salmon DNA 0.4 mg/ml
Relative to: random background probes
Direction: higher = stronger binding
Shared flanks, not repeated: GCCTAGCAC … GTCTTGATTCGCTTGACGCTGCTG
With `ATAGTGATAGCTCTGGTAAAGTGCTAG` the log fluorescence was 0.073 z-score.
For `TTAGGTCTCCTTTTCCATTAGTGCTAG`, the log fluorescence was 0.461 z-score.
The log fluorescence of `GTGAATATATGTATATATGTGTGCTAG` is reported as 0.272 z-score.
The log fluorescence of `GACAGTTTCGGGTTTCGGGACGTGCTA` is reported as 9.84 z-score.
For `GATGAACTGGGGTATCGAGACGTGCTA`, the log fluorescence was 0.4 z-score.
For `CTAGATTTCGGGACTGGATTAGTGCTA`, the log fluorescence was 2.1 z-score.
The log fluorescence of `TCATTTTCCTATGTCATACTGTGCTAG` is reported as 1.49 z-score.
`TACGGTATCGACTTTCGGGACGTGCTA` gave a log fluorescence of 6.74 z-score.
`GACGGTTGCCTTATCCTGACGTGCTAG` gave a log fluorescence of -0.101 z-score.

Sample 2
Target: RNA binding protein fox-1 homolog 2, RRM domain, GST-SBP tag (RBFOX2, Homo sapiens, UniProt O43251-10, residues 100-194)
Technique: RNA Bind-n-Seq
Molecule type: RNA
Sample: in vitro
Tested at: 365 nM
Setting: natural RNA segment, single round, ends assumed
Relative to: no-protein control
Direction: higher = stronger binding
`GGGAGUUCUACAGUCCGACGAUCAGUAGGGAUUGACUACUAGACUGUGUGUUUUAUCAAAGUGUGUAAGAAUAAAAACUCACUUGCACGAAUUGAAACGUAAAGAAAUGACACUUGUGAACGUGUGAACGUUAUGGAAUUCUCGGGUGCCAA` — result for “RBNS enrichment (R)”: 0.631.
`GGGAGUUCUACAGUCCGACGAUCGCAUUCUACUGAAGAAAAUUUUGUAGCAAAAGAUUAGAACAGUAAGAAUAGUAUGCCAGCAAUCCCUGAUUCUCUCUCUGCUUGGUGUUCUCUGGCAGCACUAAGACAAAUGGAAUUCUCGGGUGCCAA` — result for “RBNS enrichment (R)”: 0.452.
Under “RBNS enrichment (R)”, `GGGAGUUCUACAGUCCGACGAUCAGGUUAGUGUUUAGCUCUACCAAACCUGAGUCAGCCGAAUGGAAGUUAUAUGGGCCUGUAACACAAACCUGAGUUUUAACCUAGUUCUAAUUUUAUAAGGCAUCUUAUUUUGGAAUUCUCGGGUGCCAA` is recorded as 0.689.
Under “RBNS enrichment (R)”, `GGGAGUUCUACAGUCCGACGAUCUCUAAAAAAAUUAAAAAAUAACAGAGCAUUGACUCCAGUAGAUUAGAGUUUAAGUGUUUGCUCUUUCCCCGAAGUCUUUAAAGGACCUUGAAGCAGGUCACCAUGCUUGCUGGAAUUCUCGGGUGCCAA` is recorded as 0.392.
`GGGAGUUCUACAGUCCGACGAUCUUCUUUCAGUUUGCUUUUGGUUUCCUGUAUAUUUGCUUACUGUGCUGUUCUAGUGGUUGUAGGGUAAAGACGAACUGGUGAAGCAGUCGUAGCGCCGACCGAAGGUGAUUUGGAAUUCUCGGGUGCCAA` — result for “RBNS enrichment (R)”: 0.412.
`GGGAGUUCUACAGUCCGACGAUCUCGGAGUGUACAUAAAACAGAAAAAAUCUUCAUGUAUUUUUAUUAAAUAUAACAAUGUCUGAGUUUCACCUAAGAUGUUUUUGUGCCAUAUGCUGGAUAUCCAGGUUCUCUGGAAUUCUCGGGUGCCAA`: “RBNS enrichment (R)” 0.612.
Under “RBNS enrichment (R)”, `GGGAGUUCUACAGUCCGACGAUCAGUUUGAUUUGCCAGCAGUCAUACUGAGACUAGCUUGAUCCUACACCUGUUAGACAGUGGCAGAGAUAGGCCCAAGCUAAGUGGAGGCCAGGCCAGGCUGAGGGUGGGGCUGGAAUUCUCGGGUGCCAA` is recorded as 0.364.
`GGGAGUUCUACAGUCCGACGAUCAGUCCCCACGUGGUCGAGUCUGGAUCUGUAAAACUCUUCUGAUAAUGGCAAUACUUUAGGGCAGAGAUAAAACCUUUUGGUAUUUUAGCUAGCCCCCAAAUCAAAAGCACUGGAAUUCUCGGGUGCCAA`: “RBNS enrichment (R)” 0.539.

Sample 3
Target: CCNE2, cyclin fold, Cln2 fusion (human)
Technique: yeast growth competition, sequencing
Sample: yeast
Setting: strong parent motif
Relative to: not given
Direction: higher = stronger binding
Starting sequence: CDKN1B docking peptide (human); PSACRNLFGPVDH
For `PSACRNLFGRVDH [P10R]`, “normalised enrichment score” read 1.59.
`PSACRNLFGGVDH [P10G]` — result for “normalised enrichment score”: 1.49.
Under “normalised enrichment score”, `PSACRNLFTPVDH [G9T]` is recorded as 1.2.
For `PSACRNQFGPVDH [L7Q]`, “normalised enrichment score” read -0.0179.
For `PSACRNLFGHVDH [P10H]`, “normalised enrichment score” read 0.888.
`VSACRNLFGPVDH [P1V]` — result for “normalised enrichment score”: 1.37.
Under “normalised enrichment score”, `ESACRNLFGPVDH [P1E]` is recorded as 1.4.
`PSACRVLFGPVDH [N6V]` — result for “normalised enrichment score”: 3.04.

Mixed results
The fold induction of `PhoQ, residues 284 288 289 292 302 303 ALVSVA` is reported as 5.22 (PhoP, residues 12 14 15 18 19 LFHKL (Escherichia coli, UniProt P23836); Sort-seq, refers to: YFP reporter; E. coli; PhoQ-PhoP variant library, with: 10 µM Mg2+; relative to: high Mg2+ state, higher = stronger signaling).

Repeated from above (sample 3):
Under “normalised enrichment score”, `PSACRNLFTPVDH [G9T]` is recorded as 1.2.
For `PSACRNQFGPVDH [L7Q]`, “normalised enrichment score” read -0.0179.
